Measured values gathered from unrelated publications.
Protocols differ between the studies behind these lines.
ABL1 T315I phosphorylated: Tyrosine-protein kinase ABL1, phosphorylated (ABL1, Homo sapiens, UniProt P00519, T315I)
ABL1 T315I non-phosphorylated: Tyrosine-protein kinase ABL1, non-phosphorylated (ABL1, Homo sapiens, UniProt P00519, T315I)

SMILES | target | assay | setting | scale | remaining binding [%]
CC(C)=CC1OC(C)(C)C2C=C3C(=O)C(Cl)=CC(O)C3C3C(O)C4OC4C(=O)C132 (stereo not drawn) | ABL1 T315I phosphorylated | cell-free assay, competition with immobilised ligand | 10 µM | – | 78
COc1cc(Nc2nccc(-c3cnn4nc(OC)ccc34)n2)cc(C(F)(F)F)c1 | Tyrosine-protein kinase ABL1, phosphorylated (ABL1, Homo sapiens, UniProt P00519, F317L) | binding | 1 µM | – | 92
Cc1ccc(-c2c(/C=C(\C#N)C(=O)NC(C)C)n(CCCO)c3ncnc(N)c23)cc1 | ABL1 T315I non-phosphorylated | cell-free assay, competition with immobilised ligand | 1 µM | – | 100
CNC(=O)C1CCN(c2cc(C)c(F)cc2NC(=O)c2ccc(-c3cc(O)ccc3C)c(C)c2)CC1 | ABL1 T315I phosphorylated | binding, competition with immobilised ligand | 1 µM | – | 95
Nc1ncc2c(n1)-c1c([nH]c3ccc(C4=CCOCC4)cc13)CCC2 | Tyrosine-protein kinase ABL1, phosphorylated (ABL1, Homo sapiens, UniProt P00519, Q252H) | binding, competition with immobilised ligand | 1 µM | – | 47
C=CC(=O)N1CCc2ccc(-n3c(=O)ccc4cnc5ccc(-c6cnn(C)c6)cc5c43)cc21 | ABL1 T315I non-phosphorylated | KINOMEscan, measured: (T315I)-nonphosphorylated | 1 µM | reference: control | 87
CNC1C[S+]2CC[S+]3CC[S+](C1)[Ru-4]321([N]=C=S)[n]2c3ccc(OC)cc3c3c4c(c5cc(F)c[n+]1c5c32)C(=O)NC4=O (stereo not drawn) | Tyrosine-protein kinase ABL1, non-phosphorylated (ABL1, Homo sapiens, UniProt P00519, Q252H) | KinomeScan | 0.1 µM | reference: untreated | 90
CCN1CCN(Cc2ccc(C(=O)Nc3ccc(C)c(NCc4cnc5[nH]ccc5c4OC)c3)cc2C(F)(F)F)CC1 | Tyrosine-protein kinase ABL1, phosphorylated (ABL1, Homo sapiens, UniProt P00519, H396P) | binding, competition with immobilised ligand | 1 µM | – | 0.45
Cc1cnc2nc1Nc1cccc(c1)COC/C=C/COCc1cc(ccc1OCCN1CCOCC1)N2 | ABL1 (Homo sapiens, UniProt P00519, Y253F) | binding | 0.1 µM | – | 63

For quick reference, copied from above:
SMILES | target | assay | setting | scale | remaining binding [%]
CCN1CCN(Cc2ccc(C(=O)Nc3ccc(C)c(NCc4cnc5[nH]ccc5c4OC)c3)cc2C(F)(F)F)CC1 | Tyrosine-protein kinase ABL1, phosphorylated (ABL1, Homo sapiens, UniProt P00519, H396P) | binding, competition with immobilised ligand | 1 µM | – | 0.45
